Experimental data from different studies.
Parts stem from different laboratories: compare values within a part only. Positions count from the first letter of the parent shown.

Set 1 — technique: RNA Bind-n-Seq; form: RNA; medium: in vitro; concentration: not given; reference: input RNA pool; reading: higher = stronger binding; endpoint: bound/input enrichment
Target: RING finger protein unkempt homolog, zinc fingers 1-6, GST-SBP tag (UNK, Homo sapiens, UniProt Q9C0B0, residues 30-357)
Chain of UniProt Q9C0B0 (30-357, looked up): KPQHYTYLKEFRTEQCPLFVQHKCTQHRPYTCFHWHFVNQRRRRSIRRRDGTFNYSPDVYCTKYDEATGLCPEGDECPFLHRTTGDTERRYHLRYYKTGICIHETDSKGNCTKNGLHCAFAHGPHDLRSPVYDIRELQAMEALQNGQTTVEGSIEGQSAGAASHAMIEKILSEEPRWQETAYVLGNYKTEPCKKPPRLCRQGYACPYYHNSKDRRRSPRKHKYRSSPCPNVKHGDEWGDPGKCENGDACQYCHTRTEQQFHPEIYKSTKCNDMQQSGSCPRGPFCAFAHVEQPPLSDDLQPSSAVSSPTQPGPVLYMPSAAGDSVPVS
Notes: RNA with constant flanks, human and mouse sites, ends assumed
Shared flanks, not repeated: GGGAGUUCUACAGUCCGACGAUC … CAACAGAGGAUUGAGCAUCA
UAUAUCAGUAUGUUAAACUUUAUUGCCACAUUUAAAGGACUGUAUUUUCAUACUUUUUUGCAUUUUACCUUUCAUCUACCAAUCCAUGUGCAUUGGAUUGCACACUAAGAUGUAUUUUCU: 0.452 ratio
GCCAUCGCUCUUAUGGGCUACAGGUUGAGUCCACAGACAUUAGCUGCAAUUGUCAGACGCUACAGCAAGAAUGGCCGGAUUUUCUUUGAUGACUAUGUUGCCUGCUGUGUGAAGCUGCGC: 0.142 ratio
AUUCCUGAAGACAAGAAAGUCAGGGUUCAGAGGACGCAGAGCACUUUUGACCCAUUUGAGAAACCAGCCAACCAAGUCAAAAGGGUCCAUUCUGAGAACAAUGCAUGCAUUAACUUUAAA: 0.107 ratio
UGUCCGGGGAUAGGCAGGUGACCCGUGCCGCAGGCAGGAGGCCCCAGCGAGCAUCCCAUCCUGUCAUACUGCUGCAUCCGGCUAGCGCGCUCCGAAAGCAACAUCCGUGCUCAGAGAUGG: 0.0622 ratio
GAGACAGAUGAUUCAGUUGAGGGUCGUGGGGUAUCUCAGCCAUCUCAGAAGACCCCCUCUGAAGAGGACUUUGAAACCAUUAAGCUCAUCAGCAAUGGCGCCUAUGGGGCUGUCUUUCUG: 0.077 ratio
GUACAAGAAGAGCUUCUGAAGGGCCUGGAUAACAAGAACCCCAAGAUCAUAGUGGCCUGUAUAGAAACACUGAGGAAAGCCUUAAGUGAAUUUGGUUCCAAAAUCAUCUCACUUAAGCCA: 0.613 ratio
GAUCUUGCUCUGUAGCCUAGGCUAGUCUUGAAUUUGUAAGCUCUUGAGACUGAUUGACCCUCUUACCUGACUCUUCUCCUUUAAAGUAUUCCAGUUGACGUAUUGUGUCGUAGGCACAUC: 0.399 ratio
ACCUUGGACGCUGCAAGAGGAGCUGUCAAGCCCGGCAGGCUCUGAUUUGGCCCCCUCCGUUUUUCUCUGCUGCUCGUGGCUUCCCCGUGCCUCGGUGGAGUAUUUGCGUUCGGGGCUGGG: 0.168 ratio
UCUCCUGAUCUAAUGAGCUUUAUGAUGGAGUUGAAGAUGCUUUUGGAAGUUGCCUUAAAGAAUAGACAAGAGCUGUAUGCACUACCUCCUCCUCCCCAGUUCUACUCAAGCCUUAUUGAA: 0.131 ratio
CCCUGCAUUAGUUGCUCAUAAAUCAGCCUUACGAUGGGCCGGACUGUGAUAGUACUUGGCGGAGGUAUCAGUGGAUUGGCCGCAAGUUAUCAUCUGAUCCGAGGCCCCAGUCCUCCUAAG: 0.144 ratio
UUAGCUCUGAUUGACUACCUGACACAGAAACGAAGUCAAUUGGUAAAGAAGCUGAAUGACUCUGAUCACCAGUCAAGCACCUCACCGCUCAUGGAAGGCACUCCCACCAUCAAAUCCAAG: 0.105 ratio

Set 2 — technique: Spec-seq; form: double-stranded DNA, one strand shown; medium: in vitro; concentration: not given; notes: whole probe, mean of replicates; reference: not given; reading: lower = stronger binding; endpoint: relative binding energy; shared flanks, not repeated: GAGTCGTCTCGTCAGCAC … CCGTAGAGCACTCAGGTC
Target: Transcription factor SOX-2, HMG box (Sox2, Mus musculus, UniProt P48432, residues 41-119)
Chain of UniProt P48432 (41-119, looked up): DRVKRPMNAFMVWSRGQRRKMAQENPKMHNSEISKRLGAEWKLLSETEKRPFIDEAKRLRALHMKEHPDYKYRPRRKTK
CATTACA: -0.27 ln ratio
CGCCGTT: 1.18 ln ratio
AACCGTT: 0.225 ln ratio
CGGGGTT: 1.7 ln ratio
CCATGTT: 0.47 ln ratio
CATCTTC: 0.978 ln ratio
CATGGGA: 0.0228 ln ratio
CATAGGG: -0.779 ln ratio
ACCGGTT: 0.885 ln ratio
CCGCGTT: 1.43 ln ratio
CATGCTG: 0.564 ln ratio
GTACGTT: 0.944 ln ratio
CATCGCC: 0.992 ln ratio
CATCCCG: 1.08 ln ratio
CATGGGT: 0.145 ln ratio
CATGGTT: -0.0844 ln ratio

Set 3 — technique: protein binding microarray; form: double-stranded DNA, one strand shown; medium: in vitro; concentration: not given; reference: not given; reading: higher = stronger binding; endpoint: E-score
Target: Histone acetyltransferase KAT6A, winged helix 2, GST fusion (KAT6A, Homo sapiens, UniProt Q92794, residues 85-181)
Notes: 8-mer, flanks averaged, mean of 2 arrays, mostly near background
Target sequence (chain): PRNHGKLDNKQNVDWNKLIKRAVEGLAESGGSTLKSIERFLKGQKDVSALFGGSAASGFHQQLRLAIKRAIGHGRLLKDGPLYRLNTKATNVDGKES
GATCACAA: 0.146
CACTTACC: -0.084
CGACCAGA: -0.0288
CATTGGCA: -0.0311
CTGTTTGC: 0.0535
CTATTTTA: -0.0981
GCGACAGC: 0.155
CCGGAAAA: 0.166
AACTGCAA: -0.0204
GCCAACCA: -0.00257
CCTAGTCC: -0.122
ACAATGCT: -0.119
CCGAAAGG: 0.0926
TCTATTAA: 0.0703
ATTCTAGA: 0.0194
ACATTTGA: -0.0586
CGATATTC: 0.0322
CGACCCAG: 0.111
AGTGCTAT: -0.00112
GACCACAC: -0.046
ACTGCCCC: 0.0846
ACACTTTC: -0.0972
CGATCAAA: -0.0315
CGCGGACG: 0.206
ACTTGGGG: -0.158

Set 4 — technique: universal PBM; form: double-stranded DNA, one strand shown; medium: in vitro; concentration: 600 nM; reading: higher = stronger binding; endpoint: E-score
Target: Sal-like protein 4, full length isoform A (SALL4, Homo sapiens, UniProt Q9UJQ4, residues 1-1053)
Chain of UniProt Q9UJQ4 (whole entry, looked up): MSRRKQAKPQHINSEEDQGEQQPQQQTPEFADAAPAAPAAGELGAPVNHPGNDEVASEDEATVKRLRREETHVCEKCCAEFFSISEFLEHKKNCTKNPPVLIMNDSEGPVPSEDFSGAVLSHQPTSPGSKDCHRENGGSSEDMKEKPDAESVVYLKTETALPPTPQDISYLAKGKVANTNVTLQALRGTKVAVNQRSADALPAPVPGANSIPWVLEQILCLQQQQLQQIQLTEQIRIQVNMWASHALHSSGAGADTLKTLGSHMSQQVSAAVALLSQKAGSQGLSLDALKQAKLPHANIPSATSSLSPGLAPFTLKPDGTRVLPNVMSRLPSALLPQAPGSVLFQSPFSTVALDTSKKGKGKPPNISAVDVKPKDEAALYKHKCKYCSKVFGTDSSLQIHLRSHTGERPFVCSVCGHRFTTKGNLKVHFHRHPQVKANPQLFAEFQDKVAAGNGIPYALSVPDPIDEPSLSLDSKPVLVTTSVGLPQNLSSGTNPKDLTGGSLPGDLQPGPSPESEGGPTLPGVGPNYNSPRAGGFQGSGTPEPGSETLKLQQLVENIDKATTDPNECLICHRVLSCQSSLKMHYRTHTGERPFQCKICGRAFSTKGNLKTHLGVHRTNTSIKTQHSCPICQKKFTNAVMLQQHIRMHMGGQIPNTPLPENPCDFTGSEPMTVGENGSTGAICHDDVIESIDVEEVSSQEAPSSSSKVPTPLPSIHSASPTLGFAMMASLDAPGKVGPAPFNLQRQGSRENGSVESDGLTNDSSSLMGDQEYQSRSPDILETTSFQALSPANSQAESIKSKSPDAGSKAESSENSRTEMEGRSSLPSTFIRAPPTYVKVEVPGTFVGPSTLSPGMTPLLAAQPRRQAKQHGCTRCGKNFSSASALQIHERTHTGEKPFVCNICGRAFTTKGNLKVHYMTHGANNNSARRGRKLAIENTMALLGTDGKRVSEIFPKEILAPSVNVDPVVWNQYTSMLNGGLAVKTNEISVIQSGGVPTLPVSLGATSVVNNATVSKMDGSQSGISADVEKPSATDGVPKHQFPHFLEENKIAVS
Notes: 8-mer, flanks averaged, mean of replicates
TCACAGAA: 0.133
AGGCTTTA: 0.0574
CAAAGGAC: -0.134
AATCCCCC: -0.191
ACTATACT: 0.244
GCAGTGCC: -0.338
AGGCCTCG: -0.393
AATATTGA: 0.394
ATCCCATC: -0.0092
CCGAGCCG: -0.282
CACTAGCA: 0.0974
TCGGTTCA: -0.0783
AAATCACA: 0.0197
AATGATGA: 0.269
GTCTTAGA: -0.0436
CGTTCCAA: 0.0481
ATCAGTCG: 0.038
AGGGTTTA: 0.117

Set 5 — technique: protein-binding microarray; form: double-stranded DNA, one strand shown; medium: in vitro; concentration: 250 nM; notes: 60-bp whole probe; added: salmon DNA 0.4 mg/ml; reference: random background probes; reading: higher = stronger binding; endpoint: log fluorescence; shared flanks, not repeated: GCCTAGCAC … GTCTTGATTCGCTTGACGCTGCTG
Target: Interferon regulatory factor 5, full length, phosphomimetic (IRF5, Homo sapiens, UniProt Q13568-2, residues 1-514, K96S/S451D/S453D/S456D/S462D)
TACAGGTTCTCTTTTATTTTGTGCTAG: 0.842 z-score
TTAGATATGAGTTTCGATTAGTGCTAG: 8.59 z-score
TTAGGACTGGACTTACGGTTAGTGCTA: 0.0639 z-score
TTAGGACTGGACTTTCGGTTTGTGCTA: 9.19 z-score
TCATCACTCTGTCCCTCACTGTGCTAG: 0.427 z-score
GACGATAGCAGTTTCGAGACGTGCTAG: 5.46 z-score
TGAGGTCTCGGACTGGGTTAGTGCTAG: -0.527 z-score
TTGGTTTTCATTATTGCTTCGTGCTAG: 2.56 z-score
TTAGGTTTCGCTTTCGGTTAGTGCTAG: 11.8 z-score
TCATTTCCCTATTATATAACTGTGCTA: 1.69 z-score
GACGGTCTCCTTATACTGACGTGCTAG: -0.113 z-score
TTTGAACTGAGTATCGATTAGTGCTAG: 6.26 z-score
CTAGGACTGCTACTGCTTTAGTGCTAG: -0.52 z-score
GACGATATCGGGAATGGAGACGTGCTA: 1.16 z-score
TACGGTTTCGGTCTCGGGACGTGCTAG: 9.69 z-score
ACTCGTGTTTTTCTCCTATTGTGCTAG: 0.762 z-score
TTAGGACTGCTTTTCCTTAAGTGCTAG: 0.229 z-score
TTAGATTTCAGACTGGACTAGTGCTAG: 0.236 z-score
TTCACTCTCTGCTTGTGTCTGTGCTAG: 0.688 z-score
GATGATTTCAGTTCCGAGACGTGCTAG: 1.91 z-score
CTGTTTTTGCTTTCCTTCATGTGCTAG: 2.14 z-score
AAGGTATTATTTATTGTAGCGTGCTAG: 0.376 z-score
GACGGACTACTTTTCCTGACGTGCTAG: -0.145 z-score
GACGATATCGGGCATCGAGACGTGCTA: 0.991 z-score
AACGGTCTCCTACTGCTGACGTGCTAG: -0.153 z-score

Set 6 — target: CCNB2, cyclin fold, Cln2 fusion (human); technique: yeast growth competition, sequencing; medium: yeast; notes: weak parent motif; reference: not given; reading: higher = stronger binding; endpoint: normalised enrichment score
Starting sequence: DTL docking peptide (human); PSSMRKICTYFHR
C8A: 0.512
R5A: 0.391
P1A: 0.341
F11A: 0.314
H12A: 0.481
S3A: 0.326
K6A: 0.326

Repeated from above (set 5):
TTGGTTTTCATTATTGCTTCGTGCTAG: 2.56 z-score
TTTGAACTGAGTATCGATTAGTGCTAG: 6.26 z-score
GACGATATCGGGAATGGAGACGTGCTA: 1.16 z-score
TTAGGTTTCGCTTTCGGTTAGTGCTAG: 11.8 z-score
GACGATATCGGGCATCGAGACGTGCTA: 0.991 z-score
GACGATAGCAGTTTCGAGACGTGCTAG: 5.46 z-score
TTAGATTTCAGACTGGACTAGTGCTAG: 0.236 z-score
TTAGGACTGGACTTTCGGTTTGTGCTA: 9.19 z-score
TGAGGTCTCGGACTGGGTTAGTGCTAG: -0.527 z-score
GATGATTTCAGTTCCGAGACGTGCTAG: 1.91 z-score
ACTCGTGTTTTTCTCCTATTGTGCTAG: 0.762 z-score
TCATCACTCTGTCCCTCACTGTGCTAG: 0.427 z-score
TACAGGTTCTCTTTTATTTTGTGCTAG: 0.842 z-score
GACGGTCTCCTTATACTGACGTGCTAG: -0.113 z-score
CTGTTTTTGCTTTCCTTCATGTGCTAG: 2.14 z-score
